Measurements of several laboratories.
Each numbered part is a random draw from the data of one study; scales do not carry over between parts.
UniProt Q9SKN5, sequence (whole entry, looked up): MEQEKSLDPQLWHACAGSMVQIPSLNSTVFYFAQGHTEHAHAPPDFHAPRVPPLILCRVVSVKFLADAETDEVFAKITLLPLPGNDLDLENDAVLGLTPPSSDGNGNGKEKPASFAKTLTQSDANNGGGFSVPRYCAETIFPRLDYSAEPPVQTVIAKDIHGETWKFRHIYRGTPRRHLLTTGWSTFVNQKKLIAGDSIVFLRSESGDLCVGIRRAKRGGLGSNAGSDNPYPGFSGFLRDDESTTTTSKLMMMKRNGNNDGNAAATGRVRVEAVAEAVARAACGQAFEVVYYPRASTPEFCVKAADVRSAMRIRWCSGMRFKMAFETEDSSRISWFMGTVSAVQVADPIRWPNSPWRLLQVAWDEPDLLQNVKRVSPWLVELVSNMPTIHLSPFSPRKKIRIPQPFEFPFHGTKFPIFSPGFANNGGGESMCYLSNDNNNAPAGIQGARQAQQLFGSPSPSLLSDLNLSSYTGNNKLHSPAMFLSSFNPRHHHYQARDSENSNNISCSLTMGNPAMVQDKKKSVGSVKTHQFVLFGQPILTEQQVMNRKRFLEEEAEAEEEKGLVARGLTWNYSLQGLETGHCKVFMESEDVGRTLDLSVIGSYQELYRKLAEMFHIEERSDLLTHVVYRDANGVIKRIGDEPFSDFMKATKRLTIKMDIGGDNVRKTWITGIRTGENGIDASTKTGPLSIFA
UniProt O23661, sequence (whole entry, looked up): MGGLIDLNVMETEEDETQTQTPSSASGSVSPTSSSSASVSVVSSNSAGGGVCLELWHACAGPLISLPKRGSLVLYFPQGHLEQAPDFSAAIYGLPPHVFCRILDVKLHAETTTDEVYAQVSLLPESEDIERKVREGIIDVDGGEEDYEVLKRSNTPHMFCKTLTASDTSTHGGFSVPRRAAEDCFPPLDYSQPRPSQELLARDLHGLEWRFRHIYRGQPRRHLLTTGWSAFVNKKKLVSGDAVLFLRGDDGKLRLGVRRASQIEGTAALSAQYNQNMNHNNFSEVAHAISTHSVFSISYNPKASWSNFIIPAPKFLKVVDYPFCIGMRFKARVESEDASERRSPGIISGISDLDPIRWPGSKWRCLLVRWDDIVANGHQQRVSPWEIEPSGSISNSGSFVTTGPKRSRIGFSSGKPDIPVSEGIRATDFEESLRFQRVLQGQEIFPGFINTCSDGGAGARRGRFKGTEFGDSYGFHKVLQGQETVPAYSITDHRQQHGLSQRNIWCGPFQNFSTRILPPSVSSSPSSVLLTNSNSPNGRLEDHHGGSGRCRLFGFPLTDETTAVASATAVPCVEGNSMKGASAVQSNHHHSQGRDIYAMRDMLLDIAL

Study 1
Target: Ephrin type-B receptor 4 (EPHB4, Homo sapiens, UniProt P54760)
UniProt P54760, sequence (whole entry, looked up): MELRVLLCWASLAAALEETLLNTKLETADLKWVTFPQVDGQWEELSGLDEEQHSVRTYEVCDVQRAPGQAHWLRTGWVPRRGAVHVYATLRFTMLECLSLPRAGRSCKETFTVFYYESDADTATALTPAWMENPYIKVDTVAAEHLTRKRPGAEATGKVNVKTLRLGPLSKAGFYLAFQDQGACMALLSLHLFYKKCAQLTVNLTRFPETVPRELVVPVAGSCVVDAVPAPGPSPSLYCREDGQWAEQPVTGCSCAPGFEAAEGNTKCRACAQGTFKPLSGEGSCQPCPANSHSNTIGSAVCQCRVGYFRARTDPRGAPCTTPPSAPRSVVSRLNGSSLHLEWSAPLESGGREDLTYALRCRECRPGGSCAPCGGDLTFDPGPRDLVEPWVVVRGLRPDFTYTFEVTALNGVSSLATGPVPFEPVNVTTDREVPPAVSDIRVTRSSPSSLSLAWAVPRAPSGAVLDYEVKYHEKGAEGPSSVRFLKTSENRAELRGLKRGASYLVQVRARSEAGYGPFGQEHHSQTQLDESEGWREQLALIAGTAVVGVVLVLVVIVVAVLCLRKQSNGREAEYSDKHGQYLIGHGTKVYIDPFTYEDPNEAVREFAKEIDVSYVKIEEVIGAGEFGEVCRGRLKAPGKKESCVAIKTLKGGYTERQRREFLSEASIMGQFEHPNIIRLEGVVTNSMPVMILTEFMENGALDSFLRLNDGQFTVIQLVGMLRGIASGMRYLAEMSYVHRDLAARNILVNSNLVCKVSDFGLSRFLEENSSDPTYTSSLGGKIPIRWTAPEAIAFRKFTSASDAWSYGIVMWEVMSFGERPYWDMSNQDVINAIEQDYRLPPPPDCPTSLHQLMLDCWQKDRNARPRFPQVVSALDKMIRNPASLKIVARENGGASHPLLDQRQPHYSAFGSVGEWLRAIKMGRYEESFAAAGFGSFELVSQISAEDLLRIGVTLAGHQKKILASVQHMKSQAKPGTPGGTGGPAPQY
Effect on: enzyme activity
Action: inhibitor
Concentration: 0.5 µM
Relative to: control
Endpoint: remaining activity
Cc1cccc(-c2[nH]c(C(C)(C)C)nc2-c2ccc3c(c2)OCO3)n1: 91.4%
COc1ccc(C(=O)Nc2sc3c(c2C(N)=O)CCCC3)cc1OC: 93.9%
Nc1ncnc2n[nH]c(Nc3ccc(F)cc3)c12: 87.8%
CN(C)c1ccc(C=C2C(=O)Nc3ccccc32)cc1: 97.4%
C#Cc1cccc(Nc2ncnc3cc(OCCOC)c(OCCOC)cc23)c1: 79.2%
Cc1nc(-c2ccccc2)c(-c2ccncc2)o1: 84.8%
COc1ccc(OC)c2c(=S)c3ccccc3[nH]c12: 91.1%
O=C(CCCc1ccc(-c2ccccc2F)cc1)Nc1ccc(O)cc1: 106%
Cc1ccc(NC(=O)c2ccc(CN3CCN(C)CC3)cc2)cc1Nc1nc(-c2cccnc2)cs1: 97.3%
COc1cc2nccc(Oc3ccc(NC(=S)NC(=O)c4ccccc4C)cc3)c2cc1OC: 103%
CO[C@H]1C[C@@H]2CC[C@@H](C)[C@@](O)(O2)C(=O)C(=O)N2CCCC[C@H]2C(=O)O[C@H]([C@H](C)C[C@@H]2CC[C@@H](O)[C@H](OC)C2)CC(=O)[C@H](C)/C=C(\C)[C@@H](O)[C@@H](OC)C(=O)[C@H](C)C[C@H](C)/C=C/C=C/C=C/1C: 89.5%
COc1ccc(CNC(=O)Nc2ncc([N+](=O)[O-])s2)cc1: 100%
OCC(O)CCON=C1C(c2c(O)[nH]c3ccccc23)=Nc2ccccc21 (stereo not drawn): 72.2%
Cn1sc(=O)n(Cc2ccccc2)c1=O: 100%

Study 2
Target: Histamine H1 receptor (HRH1, Homo sapiens, UniProt P35367)
UniProt P35367, sequence (whole entry, looked up): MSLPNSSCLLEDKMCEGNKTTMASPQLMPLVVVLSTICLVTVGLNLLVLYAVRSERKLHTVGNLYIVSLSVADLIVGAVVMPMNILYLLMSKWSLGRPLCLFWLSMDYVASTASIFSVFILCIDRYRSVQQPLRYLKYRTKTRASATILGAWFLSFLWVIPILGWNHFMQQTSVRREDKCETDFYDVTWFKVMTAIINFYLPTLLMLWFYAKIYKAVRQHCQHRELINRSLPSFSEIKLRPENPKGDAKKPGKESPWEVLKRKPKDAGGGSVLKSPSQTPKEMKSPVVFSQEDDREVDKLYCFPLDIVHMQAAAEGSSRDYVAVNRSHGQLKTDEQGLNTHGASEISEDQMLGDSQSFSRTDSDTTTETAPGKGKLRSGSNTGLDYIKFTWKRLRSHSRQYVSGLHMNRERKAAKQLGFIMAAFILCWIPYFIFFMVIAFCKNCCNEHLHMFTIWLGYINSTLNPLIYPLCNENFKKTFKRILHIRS
Effect on: ligand displacement
Concentration: 10 µM
Endpoint: inhibition
CN1CCN(c2ccnc(NCCc3ccccc3)n2)CC1: 41.6%
c1ccc(N2CCN(Cc3nc4ccccc4[nH]3)CC2)nc1: 83.3%
C[C@@H]1CN(c2cc(-c3n[nH]c4ccc(OC5(C)CC5)cc34)ncn2)C[C@H](C)O1: -6.46%
Nc1nc(NCc2ccccc2)nc(-c2cccc(CO)c2)n1: 4.01%
O=c1nc(-c2ccccn2)sc2ccccc12: -14.9%
CC1=C(C#N)C(c2ccc3[nH]nc(C)c3c2)C(C#N)=C(C)N1: 17.7%
Nc1cnc(N2CCc3cc(S(=O)(=O)Nc4c(F)cc(Cl)cc4F)cc(N4CCCC4=O)c32)nc1: -2.69%
O=C(NS(=O)(=O)c1ccc(NCC2CCOCC2)c([N+](=O)[O-])c1)c1ccc(N2CCN(Cc3ccc(C(F)(F)F)cc3-c3ccc(Cl)cc3)CC2)cc1Oc1cnc2[nH]ccc2c1: -9.16%
O=C1NC(c2ccccn2)Sc2ccccc21 (stereo not drawn): 49.9%
COc1cc(N[C@@H]2CCCC[C@]2(O)C(F)(F)F)ccc1F: -8.03%
O=C(N[C@H]1CCCCC/C=C\C2C[C@@]2(C(=O)O)NC(=O)[C@@H]2C[C@@H](Oc3ccncc3)CN2C1=O)OC1CCCC1 (stereo partly drawn): 23.9%
COCCOc1nc(-c2ccc(Cl)nc2)nc2c1CN(C(=O)c1ncn3ccccc13)CC2: 23.9%
COc1cc(C(=O)O)ncc1C#Cc1ccccc1NS(=O)(=O)c1cccc2c(N(C)C)ccnc12: -1.47%

Study 3
Target: Probable WRKY transcription factor 33, N-terminal DNA-binding domain (WRKY33, Arabidopsis thaliana, UniProt Q8S8P5, residues 169-264)
Method: DNA-protein interaction ELISA
Form: double-stranded DNA, one strand shown
Matrix: in vitro, bacterial lysate
Concentration: not given
Notes: whole dsDNA probe, crude lysate protein
Relative to: highest signal in screen
Reading: higher = stronger binding
Endpoint: relative absorbance
Residues (chain): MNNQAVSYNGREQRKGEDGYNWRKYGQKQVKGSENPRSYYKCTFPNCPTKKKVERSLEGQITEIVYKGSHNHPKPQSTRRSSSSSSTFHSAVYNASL
AAAAAATCCTTTTCTCTTTCTGTTTCAAAA: 27.5 % of maximum
AAAAAACAACTTGGAGGATTTACAGCAAAA: 23.6 % of maximum
AAAAAAGGGGTCCTTTTCCAATGTCTAAAA: 21.5 % of maximum
AAAAAAGGGCGAGCGCTGGATCCACAAAA: 22.9 % of maximum
AAAAAAGGTTTAGCCCATGCCTGTGCAAAA: 21 % of maximum
AAAAAAGGTAGTCACATTACGAGGGTAAAA: 16.5 % of maximum
AAAAAACCAACTCTCTTTCGGACTATAAAA: 17.9 % of maximum
AAAAAAACAGCTCGGTGCCACTGTGGAAAA: 22.3 % of maximum

Further values, each from its own experiment
ETT (Arabidopsis thaliana, UniProt O23661)  positive tests (ARF10 575-693 (Arabidopsis thaliana, UniProt Q9SKN5); two-hybrid; relative to: out of 4 tests, higher = firmer interaction): 0

Excerpt of the above (study 1):
OCC(O)CCON=C1C(c2c(O)[nH]c3ccccc23)=Nc2ccccc21 (stereo not drawn): 72.2%
Cc1ccc(NC(=O)c2ccc(CN3CCN(C)CC3)cc2)cc1Nc1nc(-c2cccnc2)cs1: 97.3%
COc1cc2nccc(Oc3ccc(NC(=S)NC(=O)c4ccccc4C)cc3)c2cc1OC: 103%
CN(C)c1ccc(C=C2C(=O)Nc3ccccc32)cc1: 97.4%
